# Results pooled from the literature.
# Lines come from different studies, so protocols differ. Numbers after ± are the reported error.
# B1: enzyme A172S/A173G/C179K/M174T/Q178P (Streptomyces platensis, UniProt A0A0A0V031); chain MQHTTIGDVLREHRRSHPGRTALVDGPVRLTWPELDDRVNRLAGSLAASGIGRGDRIMWLGQNSFRVYELIAAAGKLGAMVCVGYWRWAPPEMEFALRDFDPHLVVWQHQEIHETVARTREALGSDDTARWLRHDSAPQDPDGYEAFLAAGGLADPDLDIDPDSPVLVLYTSGTSGRPKGSLLSHTNLIAMATAAAWLGDIDHTTAFLNSGPMFHIGNHQFWGMPTLLMAGKNVIVRRVVAEEVRDLLVAEECTHAFLMPPTVAEIVRLNRDTGHDLSRLRATVAPHLWEGMATTDTSRFTRSGAAAGRGYGQTELSGFAVTAAYGGPAAGNAGRPGPGLTVRVLDTAGRECAVGEAGEICARGTVVHRGYWNRDEVNAHRFRSGWWHTTDLGRREPDGSLTFLGTTTRMLKSAAENIFPAEVENCIEQHPAVREAAVIGVPNTRWAQDVKAVVVLEPDAGVSEQEIIDHCRPRIASYKKPKSVAFAAALPRTVSGARDYDALDKEYGGGGYPGAATLGPGR
# B2: enzyme A497K (Streptomyces platensis, UniProt A0A0A0V031); chain MQHTTIGDVLREHRRSHPGRTALVDGPVRLTWPELDDRVNRLAGSLAASGIGRGDRIMWLGQNSFRVYELIAAAGKLGAMVCVGYWRWAPPEMEFALRDFDPHLVVWQHQEIHETVARTREALGSDDTARWLRHDSAPQDPDGYEAFLAAGGLADPDLDIDPDSPVLVLYTAAMSGRQCGSLLSHTNLIAMATAAAWLGDIDHTTAFLNSGPMFHIGNHQFWGMPTLLMAGKNVIVRRVVAEEVRDLLVAEECTHAFLMPPTVAEIVRLNRDTGHDLSRLRATVAPHLWEGMATTDTSRFTRSGAAAGRGYGQTELSGFAVTAAYGGPAAGNAGRPGPGLTVRVLDTAGRECAVGEAGEICARGTVVHRGYWNRDEVNAHRFRSGWWHTTDLGRREPDGSLTFLGTTTRMLKSAAENIFPAEVENCIEQHPAVREAAVIGVPNTRWAQDVKAVVVLEPDAGVSEQEIIDHCRPRIASYKKPKSVAFAAALPRTVSGKRDYDALDKEYGGGGYPGAATLGPGR
# B3: PTPN2 (Homo sapiens, UniProt P17706); chain MPTTIEREFEELDTQRRWQPLYLEIRNESHDYPHRVAKFPENRNRNRYRDVSPYDHSRVKLQNAENDYINASLVDIEEAQRSYILTQGPLPNTCCHFWLMVWQQKTKAVVMLNRIVEKESVKCAQYWPTDDQEMLFKETGFSVKLLSEDVKSYYTVHLLQLENINSGETRTISHFHYTTWPDFGVPESPASFLNFLFKVRESGSLNPDHGPAVIHCSAGIGRSGTFSLVDTCLVLMEKGDDINIKQVLLNMRKYRMGLIQTPDQLRFSYMAIIEGAKCIKGDSSIQKRWKELSKEDLSPAFDHSPNKIMTEKYNGNRIGLEEEKLTGDRCTGLSSKMQDTM
# B4: dmaW (Aspergillus fumigatus, UniProt Q50EL0); chain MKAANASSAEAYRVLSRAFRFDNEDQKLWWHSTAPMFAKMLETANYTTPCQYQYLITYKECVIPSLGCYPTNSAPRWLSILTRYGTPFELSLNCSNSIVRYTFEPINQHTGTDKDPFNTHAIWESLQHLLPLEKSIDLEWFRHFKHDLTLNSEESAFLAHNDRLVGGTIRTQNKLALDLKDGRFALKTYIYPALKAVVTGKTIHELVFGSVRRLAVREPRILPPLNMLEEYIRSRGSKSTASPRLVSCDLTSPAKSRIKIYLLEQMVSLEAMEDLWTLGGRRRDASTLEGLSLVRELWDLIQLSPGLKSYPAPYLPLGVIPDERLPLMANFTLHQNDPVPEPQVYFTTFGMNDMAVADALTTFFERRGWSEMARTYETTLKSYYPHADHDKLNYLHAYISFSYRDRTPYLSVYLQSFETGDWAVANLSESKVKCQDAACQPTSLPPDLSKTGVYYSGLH
# Sequence of UniProt P21729 (whole entry, looked up): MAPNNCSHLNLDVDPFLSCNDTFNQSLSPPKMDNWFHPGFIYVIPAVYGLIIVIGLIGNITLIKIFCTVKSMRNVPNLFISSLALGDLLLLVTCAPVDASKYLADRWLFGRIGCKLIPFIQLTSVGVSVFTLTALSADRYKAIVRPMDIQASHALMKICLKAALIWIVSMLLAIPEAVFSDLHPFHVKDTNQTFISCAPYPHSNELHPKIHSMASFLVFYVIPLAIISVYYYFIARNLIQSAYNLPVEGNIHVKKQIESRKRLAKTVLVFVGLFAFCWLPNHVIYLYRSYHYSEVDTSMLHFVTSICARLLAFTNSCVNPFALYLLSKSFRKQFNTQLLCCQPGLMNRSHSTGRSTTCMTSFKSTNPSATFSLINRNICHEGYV
Molecule,target or system,test,test system,setting,scale,measurement,value
B1,C[C@@]12CCC[C@@](C)(C(=O)OP(=O)(O)OC[C@H]3O[C@@H](n4cnc5c(N)ncnc54)[C@H](O)[C@@H]3O)[C@H]1C[C@@H](O)[C@]13C[C@H]4C[C@H](O[C@@]4(C)C1)[C@@H]23,steady-state kinetics,,"pH 7.8, 25 °C",,kcat,10 s⁻¹
N=C(N)NCCC[C@@H]1NC(=O)[C@H](CCCCNC(=O)CCOCCOCCOCCOCCNC(=O)CC[C@H](NC(=O)CCOCCOCCOCCOCCNC(=O)CC[C@H](NC(=O)CN2CCN(CC(=O)O)CCN(CC(=O)O)CCN(CC(=O)O)CC2)C(=O)NCCOCCOCCOCCOCCC(=O)N[C@@H](CCC(=O)NCCOCCOCCOCCOCCC(=O)NCCCC[C@@H]2NC(=O)[C@@H](Cc3ccccc3)NC(=O)[C@H](CC(=O)O)NC(=O)CNC(=O)[C@H](CCCNC(=N)N)NC2=O)C(=O)NCCOCCOCCOCCOCCC(=O)NCCCC[C@@H]2NC(=O)[C@@H](Cc3ccccc3)NC(=O)[C@H](CC(=O)O)NC(=O)CNC(=O)[C@H](CCCNC(=N)N)NC2=O)C(=O)NCCOCCOCCOCCOCCC(=O)NCCCC[C@@H]2NC(=O)[C@@H](Cc3ccccc3)NC(=O)[C@H](CC(=O)O)NC(=O)CNC(=O)[C@H](CCCNC(=N)N)NC2=O)NC(=O)[C@@H](Cc2ccccc2)NC(=O)[C@H](CC(=O)O)NC(=O)CNC1=O [indium-111 labelled],,,"female athymic nude mice, eyes","intravenous, 3 µCi, 1 h, U-87 MG glioma xenograft",,tissue uptake,1.4 %ID/g
ATTTAAGATATCTTAAAT (dsDNA),"repressor C2 1-216 E44A (Salmonella phage P22, UniProt P69202)",filter binding,"double-stranded DNA, one strand shown",,,binding,binds
B2 (enzyme A497K),C[C@@]12CCC[C@@](C)(C(=O)OP(=O)(O)OC[C@H]3O[C@@H](n4cnc5c(N)ncnc54)[C@H](O)[C@@H]3O)[C@H]1C[C@@H](O)[C@]13C[C@H]4C[C@H](O[C@@]4(C)C1)[C@@H]23,steady-state kinetics,,"pH 7.8, 25 °C",,kcat,26 s⁻¹
ATGATCAGTACGATGTTCACTGTACTCTGACTCGCCTGACATGACTGACGGACTTGCACT (dsDNA; hemimethylated N6-methyladenine),"ccrMIM 1-358 G305A (Caulobacter vibrioides, UniProt P0CAW2)",EMSA,"double-stranded DNA, one strand shown",with: sinefungin 60 µM,,binding,binds
N=C(N)NCCC[C@@H]1NC(=O)[C@H](CCCCNC(=O)CC[C@H](NC(=O)CCOCCOCCOCCOCCNC(=O)CN2CCN(CC(=O)O)CCN(CC(=O)O)CCN(CC(=O)O)CC2)C(=O)NCCCC[C@@H]2NC(=O)[C@@H](Cc3ccccc3)NC(=O)[C@H](CC(=O)O)NC(=O)CNC(=O)[C@H](CCCNC(=N)N)NC2=O)NC(=O)[C@@H](Cc2ccccc2)NC(=O)[C@H](CC(=O)O)NC(=O)CNC1=O [indium-111 labelled],,,"athymic nude mice, female, U-87 MG glioma xenograft, tumour and blood","intravenous, 72 h",reference: tumour over blood,tumour to tissue ratio,53.2 ± 6.41
C[C@H]1COc2c(N3CCN(C)CC3)c(F)cc3c(=O)c(C(=O)N[C@@H](CCCNC(=N)N)C(=O)N[C@@H](Cc4ccc(-c5ccccc5)cc4)C(=O)N[C@@H](CCCNC(=N)N)C(=O)N[C@@H](Cc4ccc(-c5ccccc5)cc4)C(=O)N[C@@H](CCCNC(=N)N)C(N)=O)cn1c23,human erythrocytes,,,"25 µM, 1 h, 37 °C",reference: Triton X-100,hemolysis,0.97 ± 0.008%
B3 (PTPN2),CCCC[C@H](NC(=O)[C@H](CC(=O)O)NC(=O)[C@H](CC(=O)O)NC(=O)[C@H](CCC(=O)O)NC(=O)[C@H](Cc1ccc(OP(=O)(O)O)cc1)NC(=O)[C@H](CC(=O)O)NC(=O)[C@H](CC(=O)O)NC(=O)[C@H](CCC(=O)O)NC(=O)[C@H](CC(C)C)NC(=O)[C@H](CCC(=O)O)NC(=O)[C@H](CCC(=O)O)NC(=O)c1ccc2c(c1)C1(OC2=O)c2ccc(O)cc2Oc2cc(O)ccc21)C(=O)N[C@@H](CCC(=O)O)C(=O)N[C@@H](CCC(=O)O)C(N)=O,steady-state kinetics,,21 °C,,kcat,30 ± 1.7 s⁻¹
CCCNC(=O)[C@H](CC(C)C)NC(=O)[C@H](Cc1c[nH]cn1)NC(=O)CNC(=O)[C@@H](NC(=O)[C@H](C)NC(=O)[C@H](Cc1c[nH]c2ccccc12)NC(=O)[C@H](CCC(N)=O)NC(=O)[C@@H](Cc1ccccc1)NC(=O)CCCCCNC(=O)CN1CCN(CC(=O)O)CCN(CC(=O)O)CCN(CC(=O)O)CC1)C(C)C [indium-111 labelled],"Gastrin-releasing peptide receptor (Mus musculus, UniProt P21729)",biodistribution,"CF-1 mice, pancreas","intravenous, 1 h, unblocked",,tissue uptake,2.04 ± 0.17 %ID/g
CCCC[C@H](NC(=O)CNC(=O)CNC(=O)c1ccc(NN)nc1)C(=O)N[C@H]1CC(=O)NCCCC[C@@H](C(N)=O)NC(=O)[C@H](Cc2c[nH]c3ccccc23)NC(=O)[C@H](CCCNC(=N)N)NC(=O)[C@@H](Cc2ccccc2)NC(=O)[C@H](Cc2c[nH]cn2)NC1=O [technetium-99m labelled],,,"C57 mouse, B16/F1 melanoma-bearing, liver","intravenous, 24 h",,tissue uptake,0.16 ± 0.02 %ID/g
ATGATCAGTACGATGTTCACTGTACTCTGACTCGCCTGACATGACTGACGGACTTGCACT (ssDNA),"ccrMIM 1-358 H317A (Caulobacter vibrioides, UniProt P0CAW2)",EMSA,single-stranded DNA,with: sinefungin 60 µM,,Kd,101 ± 32.1 nM
N=C(N)NCCC[C@@H]1NC(=O)[C@H](CCCCNC(=O)CC[C@H](NC(=O)CCOCCOCCOCCOCCNC(=O)CC[C@H](NC(=O)CN2CCN(CC(=O)O)CCN(CC(=O)O)CCN(CC(=O)O)CC2)C(=O)NCCOCCOCCOCCOCCC(=O)N[C@@H](CCC(=O)NCCCC[C@@H]2NC(=O)[C@@H](Cc3ccccc3)NC(=O)[C@H](CC(=O)O)NC(=O)CNC(=O)[C@H](CCCNC(=N)N)NC2=O)C(=O)NCCCC[C@@H]2NC(=O)[C@@H](Cc3ccccc3)NC(=O)[C@H](CC(=O)O)NC(=O)CNC(=O)[C@H](CCCNC(=N)N)NC2=O)C(=O)NCCCC[C@@H]2NC(=O)[C@@H](Cc3ccccc3)NC(=O)[C@H](CC(=O)O)NC(=O)CNC(=O)[C@H](CCCNC(=N)N)NC2=O)NC(=O)[C@@H](Cc2ccccc2)NC(=O)[C@H](CC(=O)O)NC(=O)CNC1=O [indium-111 labelled],,,"athymic nude mice, female, U-87 MG glioma xenograft, tumour and blood","intravenous, 4 h",reference: tumour over blood,tumour to tissue ratio,161 ± 100
B4 (dmaW),O=P(O)(O)OP(=O)(O)OCC1=CCCCC1,steady-state kinetics,,"pH 7.5, 35 °C",,kcat/Km,16.7 ± 1.67 M⁻¹ s⁻¹
C=Cc1c(C)c2cc3nc(c4c5[nH]c(cc6nc(cc1[nH]2)C(C)=C6CC)c(C)c5C(=O)C4)[C@@H](CCC(=O)NCC(=O)N1CCC[C@H]1C(=O)N[C@@H](CC(C)C)C(=O)NCC(=O)N[C@@H](Cc1ccccc1)C(=O)N[C@@H](CCCNC(=N)N)C(=O)N[C@H](C(=O)NCC(=O)N[C@@H](CCCCN)C(N)=O)C(C)C)[C@@H]3C,OA patient chondrocytes,"flow cytometry, refers to: cellular uptake",,"1 µM, 6 h",,fluorescent cells,80%
GTTTTAGAGCTGTGCTGTTTCGAATGGTTCCAAAAC (dsDNA duplex),"csn2 full length assumed (Streptococcus agalactiae, UniProt E7S4M0)",EMSA,"double-stranded DNA, one strand shown",,,binding,binds

# Some of these lines once more:
Molecule,target or system,test,test system,setting,scale,measurement,value
B1,C[C@@]12CCC[C@@](C)(C(=O)OP(=O)(O)OC[C@H]3O[C@@H](n4cnc5c(N)ncnc54)[C@H](O)[C@@H]3O)[C@H]1C[C@@H](O)[C@]13C[C@H]4C[C@H](O[C@@]4(C)C1)[C@@H]23,steady-state kinetics,,"pH 7.8, 25 °C",,kcat,10 s⁻¹
N=C(N)NCCC[C@@H]1NC(=O)[C@H](CCCCNC(=O)CCOCCOCCOCCOCCNC(=O)CC[C@H](NC(=O)CCOCCOCCOCCOCCNC(=O)CC[C@H](NC(=O)CN2CCN(CC(=O)O)CCN(CC(=O)O)CCN(CC(=O)O)CC2)C(=O)NCCOCCOCCOCCOCCC(=O)N[C@@H](CCC(=O)NCCOCCOCCOCCOCCC(=O)NCCCC[C@@H]2NC(=O)[C@@H](Cc3ccccc3)NC(=O)[C@H](CC(=O)O)NC(=O)CNC(=O)[C@H](CCCNC(=N)N)NC2=O)C(=O)NCCOCCOCCOCCOCCC(=O)NCCCC[C@@H]2NC(=O)[C@@H](Cc3ccccc3)NC(=O)[C@H](CC(=O)O)NC(=O)CNC(=O)[C@H](CCCNC(=N)N)NC2=O)C(=O)NCCOCCOCCOCCOCCC(=O)NCCCC[C@@H]2NC(=O)[C@@H](Cc3ccccc3)NC(=O)[C@H](CC(=O)O)NC(=O)CNC(=O)[C@H](CCCNC(=N)N)NC2=O)NC(=O)[C@@H](Cc2ccccc2)NC(=O)[C@H](CC(=O)O)NC(=O)CNC1=O [indium-111 labelled],,,"female athymic nude mice, eyes","intravenous, 3 µCi, 1 h, U-87 MG glioma xenograft",,tissue uptake,1.4 %ID/g
